# Measured values collected from several papers.
# Lines come from different studies, so protocols differ. “And” joins repeats or separate records; there may be more than shown. Numbers after ± are the reported error.
# USP5: Ubiquitin carboxyl-terminal hydrolase 5 (USP5, Homo sapiens, UniProt P45974)
# Coelenterazine h 2-monooxygenase: Coelenterazine h 2-monooxygenase (Renilla reniformis, UniProt P27652)
# PTGS2: Prostaglandin G/H synthase 2 (PTGS2, Homo sapiens, UniProt P35354)
# Protein-S-isoprenylcysteine O-methyltransferase: Protein-S-isoprenylcysteine O-methyltransferase (Homo sapiens, UniProt O60725)
# APLNR: Apelin receptor (APLNR, Homo sapiens, UniProt P35414)
Structure (SMILES),target,assay,system,conditions,inhibition
O=C(c1ccccn1)N1CCc2ccccc2C1,USP5,"enzyme activity, inhibitor",,17 µM,59%
Cl.Cl.N[C@@H](C(=O)N1CCCC1)C1CCN(c2nccc3c(-c4ncc(Cl)cc4Cl)cccc23)CC1,"Protein-arginine deiminase type-4 (PADI4, Homo sapiens, UniProt Q9UM07)","enzyme activity, inhibitor",,"1.22 nM, added: Ca2+ 0.4 mM",5.75% and 1.5% and 3.73%
C[Si]1(C[C@H](CN)CC(=O)O)CCCC1,"Substance-P receptor (TACR1, Homo sapiens, UniProt P25103)","ligand displacement, radioligand",,70 µM,21%
Cl.Oc1ccc(Nc2nc(NCC3CCCO3)c3ccccc3n2)cc1 (stereo not drawn),Coelenterazine h 2-monooxygenase,"luciferase activity, inhibitor, luminescence counter-screen",,"concentration not given, test 1",96.5% and 89.8%
C[Si](C)(C)C[C@@H](CN)CC(=O)O,"alpha2 adrenergic receptor, rat","binding, radioligand binding",,"75 µM, added: [3H]rauwolscine",3%
C/C=C(/C)C(=O)O[C@@H]1C=C(C)CC[C@]2(O)[C@@H](C(C)C)CC(=O)[C@]12C,PTGS2,"enzyme activity, inhibitor",,15.63 µg/mL,0%
CCCCCCCCN(CCC(=O)Nc1ccccc1)C(=O)c1cccc(OC)c1,Protein-S-isoprenylcysteine O-methyltransferase,enzyme activity,Sf9 membranes,"50 µM, added: [3H]S-adenosylmethionine, biotin-farnesyl-L-cysteine",26%
Cc1cc(NC(=O)C(=O)N2C[C@@H](C)CC[C@@H]2c2ccc3scnc3c2)cnc1N,PRMT5-containing complexes,"enzyme activity, HotSpot radiometric",,"10 µM, panel of 38 methyltransferases, added: 3H-SAM 1 µM",> 90%
CS(=O)(=O)Nc1cccc(-c2csc3cnc(Nc4ccc(N5CCN(CCCCCOc6cccc7c6C(=O)N(C6CCC(=O)NC6=O)C7=O)CC5)cc4)nc23)c1 (stereo not drawn),"STE20-related kinase adapter protein beta (Homo sapiens, UniProt Q9C0K7)","probe labelling, inhibitor, KiNativ chemoproteomics",MOLT-4,1 µM,7.18%
CS(=O)(=O)c1ccc(-n2cc(C=NN=c3[nH]c(-c4ccc([N+](=O)[O-])cc4)cs3)c(-c3ccc(Br)cc3)n2)cc1,PTGS2,enzyme activity,,10 µM,73.7%
N#CC(=CNc1ccc(C(=O)O)cc1)c1nc2ccccc2[nH]1,USP5,"enzyme activity, inhibitor",,17 µM,2%
CC(C)Cc1ccc(-c2nn(-c3ccc(S(C)(=O)=O)cc3)cc2C=NN=c2[nH]c(-c3ccc(Br)cc3)cs2)cc1,PTGS2,enzyme activity,,0.01 µM,20.7%
CN(C)C/C=C/C(=O)Nc1ccc2nc(NCCCCCN(C)C)nc(NCCCCCCN(C)C)c2c1,"DNA (cytosine-5)-methyltransferase 3A, with DNMT3L (DNMT3A, Homo sapiens, UniProt Q9Y6K1)",enzyme activity,,50 µM,6%
CCCCCCCCN(CCC(=O)Nc1ccccc1)C(=O)c1ccccc1OC,Protein-S-isoprenylcysteine O-methyltransferase,enzyme activity,Sf9 membranes,"50 µM, added: [3H]S-adenosylmethionine, biotin-farnesyl-L-cysteine",32%
CN(Cc1ccc(/C=C/C(=O)NO)cc1)CC12CC3CC(CC(C3)C1)C2,human 5-HT6 receptor,agonist radioligand binding,,0.05 µM,-12%
Cc1ccc2c(c1)sc(-c1ccc(N(C)C)cc1)[n+]2C,Coelenterazine h 2-monooxygenase,"luciferase activity, inhibitor, luminescence counter-screen",,"concentration not given, test 3 new dilution",86.5% and 88.2%
CC=C(C)C(=O)OC1CC2C(C=C(C)C3C(OC(C)=O)CC(=O)C13C)OC(=O)C2C (stereo not drawn),PTGS2,"enzyme activity, inhibitor",,1.95 µg/mL,0%
COc1cccc(-c2cc(F)c(NC(=O)Nc3sc(C)nc3C(=O)O)c(F)c2)c1,"Dihydroorotate dehydrogenase (quinone), mitochondrial (DHODH, Homo sapiens, UniProt Q02127)","enzyme activity, DCIP colorimetric",,10.00 µM,38.2% and 43.3% and 38.1%
O=c1[nH]c(=S)c2c(n1N1CCOCC1)CCC2,USP5,"enzyme activity, inhibitor",,17 µM,4%
CS(=O)(=O)c1ccc(-n2cc(C=NN=c3[nH]c(-c4ccc(Br)cc4)cs3)c(-c3ccc(Br)cc3)n2)cc1,PTGS2,enzyme activity,,0.01 µM,17.7%
Nc1nnc2c(n1)-c1ccccc1C2=O,USP5,"enzyme activity, inhibitor",,17 µM,62%
"CC(=O)C12NC(C)(C)CC1(C)C(=O)C1=C2c2c(c3c4n2C(C)(C)CC2=C4C4(CC(C)(C)NC(C)(C4)C2=O)CC3(C)C)C(=O)C(C)(C)N1 (single isomer, unassigned; (-))","Potassium voltage-gated channel subfamily KQT member 2 (KCNQ2, Homo sapiens, UniProt O43526)","potassium current, whole-cell patch clamp",HEK293T,40 µM,1 ± 0.04%
O=C1c2sc(-c3ccc(N4CCC(F)C4)nc3F)nc2CCN1c1cccnc1 (stereo not drawn),"Type-2 angiotensin II receptor (AGTR2, Homo sapiens, UniProt P50052)","ligand displacement, radioligand",,1 µM,3%
COC(=O)C(C#N)=Cc1ccc(C)o1,USP5,"enzyme activity, inhibitor",,17 µM,10%
C/C=C/C(=O)Nc1ccc2nc(NCCCCCN(C)C)nc(NCCCCCCN(C)C)c2c1,"Protein arginine N-methyltransferase 3 (PRMT3, Homo sapiens, UniProt O60678)","enzyme activity, inhibitor, radiometric",,50 µM,86%
CS(=O)(=O)c1ccc(-n2cc(C=NN=c3[nH]c(-c4ccc(Br)cc4)cs3)c(-c3ccc([N+](=O)[O-])cc3)n2)cc1 (mixture of isomers),PTGS2,enzyme activity,,0.01 µM,6.39%
COc1ccc(CSc2ncccn2)cc1OS(=O)(=O)c1ccc([N+](=O)[O-])cc1,APLNR,"β-arrestin recruitment, antagonist, PRESTO-Tango",,concentration not given,90.1 ± 1.2%
C=CC(=O)N1Cc2nc(-c3cc(-c4cc(Cl)cnc4Cl)c(F)cc3F)n(-c3ccncn3)c2C1,"Serine/threonine-protein kinase Nek8 (NEK8, Homo sapiens, UniProt Q86SG6)","cell-free assay, inhibitor",,1 µM,-3.4%
CN(C)c1c(C(C#N)=C(C#N)C#N)c2ccccc2n1C,USP5,"enzyme activity, inhibitor",,17 µM,45%
CO[C@@H]1OC[C@@H](O)[C@H](O)[C@H]1O,PTGS2,"enzyme activity, inhibitor",,3.9 µg/mL,42.9%
O=C1c2sc(-c3ccc(N4CCC(CO)CC4)nc3F)nc2CCN1c1cccnc1,APLNR,"ligand displacement, radioligand",,1 µM,5%
CN1C=C/C(=C\c2cc[n+](C)c3ccccc23)c2ccccc21,Coelenterazine h 2-monooxygenase,"luciferase activity, inhibitor, luminescence counter-screen",,"concentration not given, test 1",104% and 99.7%
O=c1c(=NO)c(=NO)c(=O)c2ccccc12,USP5,"enzyme activity, inhibitor",,17 µM,72%
NN[C@@H](c1nnnn1CCc1ccccc1)C1CCCCC1,"Endothiapepsin (EAPA, Cryphonectria parasitica, UniProt P11838)","enzyme activity, inhibitor",,200 µM,36.9%
Cc1oc2c(c1C(=O)NCN1CCOCC1)C(=O)c1ccccc1C2=O,USP5,"enzyme activity, inhibitor",,17 µM,14%
CCCCCCCCN(CCC(=O)Nc1ccccc1)C(=O)C1CCCN1 (stereo not drawn),Protein-S-isoprenylcysteine O-methyltransferase,enzyme activity,Sf9 membranes,"50 µM, added: [3H]S-adenosylmethionine, biotin-farnesyl-L-cysteine",62%

# For quick reference, copied from above:
Structure (SMILES),target,assay,system,conditions,inhibition
CN(Cc1ccc(/C=C/C(=O)NO)cc1)CC12CC3CC(CC(C3)C1)C2,human 5-HT6 receptor,agonist radioligand binding,,0.05 µM,-12%
Cc1ccc2c(c1)sc(-c1ccc(N(C)C)cc1)[n+]2C,Coelenterazine h 2-monooxygenase,"luciferase activity, inhibitor, luminescence counter-screen",,"concentration not given, test 3 new dilution",86.5% and 88.2%
CC=C(C)C(=O)OC1CC2C(C=C(C)C3C(OC(C)=O)CC(=O)C13C)OC(=O)C2C (stereo not drawn),PTGS2,"enzyme activity, inhibitor",,1.95 µg/mL,0%
COc1cccc(-c2cc(F)c(NC(=O)Nc3sc(C)nc3C(=O)O)c(F)c2)c1,"Dihydroorotate dehydrogenase (quinone), mitochondrial (DHODH, Homo sapiens, UniProt Q02127)","enzyme activity, DCIP colorimetric",,10.00 µM,38.2% and 43.3% and 38.1%
O=c1[nH]c(=S)c2c(n1N1CCOCC1)CCC2,USP5,"enzyme activity, inhibitor",,17 µM,4%
CS(=O)(=O)c1ccc(-n2cc(C=NN=c3[nH]c(-c4ccc(Br)cc4)cs3)c(-c3ccc(Br)cc3)n2)cc1,PTGS2,enzyme activity,,0.01 µM,17.7%
